{"data": "Results pooled from the literature", "note": "A part holds a random share of what one study measured. Positions count from the first letter of the parent shown."}
{"data": "Sample 1", "target": "CCND2, cyclin fold, Cln2 fusion (human)", "method": "yeast growth competition, sequencing", "medium": "yeast", "setting": "weak parent motif", "baseline": "not given", "reading": "higher = stronger binding", "starting sequence": "WEE1 docking peptide (human); HKTFRKLRLFDTP"}
{"Substitution": "L9T", "normalised enrichment score": -0.178}
{"Substitution": "R8D", "normalised enrichment score": 0.0899}
{"Substitution": "L9K", "normalised enrichment score": 0.413}
{"Substitution": "F10T", "normalised enrichment score": 0.319}
{"Substitution": "L9N", "normalised enrichment score": -0.14}
{"data": "Sample 2", "target": "Sal-like protein 4, full length isoform A (SALL4, Homo sapiens, UniProt Q9UJQ4, residues 1-1053)", "method": "universal PBM", "molecule type": "double-stranded DNA, one strand shown", "medium": "in vitro", "tested at": "600 nM", "setting": "8-mer, flanks averaged, mean of replicates", "reading": "higher = stronger binding", "sequence of UniProt Q9UJQ4 (whole entry, looked up)": "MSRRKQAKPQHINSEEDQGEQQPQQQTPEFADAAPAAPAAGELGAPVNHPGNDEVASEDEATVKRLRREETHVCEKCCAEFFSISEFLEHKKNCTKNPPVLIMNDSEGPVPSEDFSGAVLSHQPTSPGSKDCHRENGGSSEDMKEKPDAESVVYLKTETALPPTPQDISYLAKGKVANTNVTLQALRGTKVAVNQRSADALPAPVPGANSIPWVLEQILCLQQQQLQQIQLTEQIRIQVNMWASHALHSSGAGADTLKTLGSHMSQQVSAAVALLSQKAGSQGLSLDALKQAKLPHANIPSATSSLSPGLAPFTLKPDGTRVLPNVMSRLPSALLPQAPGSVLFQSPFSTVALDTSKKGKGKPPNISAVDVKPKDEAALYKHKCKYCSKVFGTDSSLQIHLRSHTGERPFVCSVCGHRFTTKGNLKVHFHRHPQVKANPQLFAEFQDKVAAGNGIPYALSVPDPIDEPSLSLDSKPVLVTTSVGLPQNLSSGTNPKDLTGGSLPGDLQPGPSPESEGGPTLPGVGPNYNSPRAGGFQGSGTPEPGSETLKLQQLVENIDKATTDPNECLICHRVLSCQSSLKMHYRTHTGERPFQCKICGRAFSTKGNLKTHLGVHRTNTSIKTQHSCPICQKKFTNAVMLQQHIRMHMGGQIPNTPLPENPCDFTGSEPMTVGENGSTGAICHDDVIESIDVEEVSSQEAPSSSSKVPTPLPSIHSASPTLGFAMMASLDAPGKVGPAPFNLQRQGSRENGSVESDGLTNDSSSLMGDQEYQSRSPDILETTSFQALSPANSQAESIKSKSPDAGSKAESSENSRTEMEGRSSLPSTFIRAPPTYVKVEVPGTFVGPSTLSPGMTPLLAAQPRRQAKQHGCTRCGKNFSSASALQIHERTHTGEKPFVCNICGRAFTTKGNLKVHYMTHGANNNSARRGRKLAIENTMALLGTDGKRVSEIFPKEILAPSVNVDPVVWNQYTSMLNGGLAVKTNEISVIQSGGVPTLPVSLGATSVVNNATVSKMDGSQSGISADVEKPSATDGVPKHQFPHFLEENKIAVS"}
{"Sequence": "CCTTCATA", "E-score": 0.212}
{"Sequence": "GCGCTACA", "E-score": 0.0606}
{"Sequence": "ACGTCATC", "E-score": -0.15}
{"Sequence": "AAGCATAC", "E-score": 0.279}
{"Sequence": "GGGTGTCA", "E-score": -0.143}
{"Sequence": "CAGTCTGC", "E-score": -0.206}
{"Sequence": "GTCTCATA", "E-score": 0.206}
{"Sequence": "GCATGACA", "E-score": 0.0383}
{"Sequence": "ATCCTTAG", "E-score": 0.0747}
{"data": "Sample 3", "target": "RNA binding protein fox-1 homolog 2, RRM domain, GST-SBP tag (RBFOX2, Homo sapiens, UniProt O43251-10, residues 100-194)", "method": "RNA Bind-n-Seq", "molecule type": "RNA", "medium": "in vitro", "tested at": "365 nM", "setting": "natural RNA segment, single round, ends assumed", "baseline": "no-protein control", "reading": "higher = stronger binding", "all sequences stand within": "GGGAGUUCUACAGUCCGACGAUC … UGGAAUUCUCGGGUGCCAA", "Target sequence (chain)": "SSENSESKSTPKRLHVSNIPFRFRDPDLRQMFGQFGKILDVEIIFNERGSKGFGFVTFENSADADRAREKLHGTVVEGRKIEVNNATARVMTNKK"}
{"Sequence": "GCAGACCUAUUGUGGGUAUAGGUAUUUUCUUCCUGGGGAAGAAUUCAGUUCCCGUCUCAGCUGUACUUUUGUGGGCCUGUCAUCUUGAUGACCAGAAUGAAAGCUUGCUC", "RBNS enrichment (R)": 4.34}
{"Sequence": "AAUUUCAAUAUGUUUAUACUGGUGACUUUUAAGUCAUCUUGUAUUAUCCUGGGUAGGGUGAAAACCCUCAAGUAGUAUUUUUAUGAGCCUGGCAUGGUGAUAUAACUGAA", "RBNS enrichment (R)": 0.907}
{"Sequence": "AAAGUCAGUUAUGAGUCUACCAGACUUUGUUCUGAAAAAUAGAAACAAAACACCUGAUUAAGCUCUUGAGUAUGGCAUAGGAAUUUUUUAGAAGAAUGCAUUCAAGGAUU", "RBNS enrichment (R)": 1.52}
{"Sequence": "UUCAUUUAAGCAAAACCAUACAUUAUCUUUUCCAGUCCUUUCUUGUAUUCUUACUGUUUUUUUAAAAUAACUUUUUGCCUUAAUAGCUCAUUGUCACUAAUAACUUCUGU", "RBNS enrichment (R)": 0.518}
{"Sequence": "CCAGUCUCAUUCCUCCCCAGGAGUGAAACUUGCUUCAGCUGAAAAGGUUGGGUGCAUUGUCAGUAAAAAGGGCUUAUUUGUUUCAUUUUACUUUCCUGCAAAAUUUUCUU", "RBNS enrichment (R)": 0.208}
{"data": "Single results of other studies"}
{"Substance": "PhoQ, residues 284 288 289 292 302 303 SLCLSL", "target": "PhoP, residues 12 14 15 18 19 HLGGL (Escherichia coli, UniProt P23836)", "test": "Sort-seq, item: YFP reporter", "test system": "E. coli", "setting": "PhoQ-PhoP variant library, with: 10 µM Mg2+", "scale": "baseline: high Mg2+ state, higher = stronger signaling", "endpoint": "fold induction", "result": 11.3}
{"note": "Repeated from above (sample 1):"}
{"Substitution": "L9N", "normalised enrichment score": -0.14}
{"Substitution": "L9T", "normalised enrichment score": -0.178}
{"Substitution": "R8D", "normalised enrichment score": 0.0899}
